Measurements from different studies.
Each numbered part is a random draw from the data of one study; scales do not carry over between parts. “And” joins repeats or separate records; there may be more than shown.
UniProt Q13470, sequence (whole entry, looked up): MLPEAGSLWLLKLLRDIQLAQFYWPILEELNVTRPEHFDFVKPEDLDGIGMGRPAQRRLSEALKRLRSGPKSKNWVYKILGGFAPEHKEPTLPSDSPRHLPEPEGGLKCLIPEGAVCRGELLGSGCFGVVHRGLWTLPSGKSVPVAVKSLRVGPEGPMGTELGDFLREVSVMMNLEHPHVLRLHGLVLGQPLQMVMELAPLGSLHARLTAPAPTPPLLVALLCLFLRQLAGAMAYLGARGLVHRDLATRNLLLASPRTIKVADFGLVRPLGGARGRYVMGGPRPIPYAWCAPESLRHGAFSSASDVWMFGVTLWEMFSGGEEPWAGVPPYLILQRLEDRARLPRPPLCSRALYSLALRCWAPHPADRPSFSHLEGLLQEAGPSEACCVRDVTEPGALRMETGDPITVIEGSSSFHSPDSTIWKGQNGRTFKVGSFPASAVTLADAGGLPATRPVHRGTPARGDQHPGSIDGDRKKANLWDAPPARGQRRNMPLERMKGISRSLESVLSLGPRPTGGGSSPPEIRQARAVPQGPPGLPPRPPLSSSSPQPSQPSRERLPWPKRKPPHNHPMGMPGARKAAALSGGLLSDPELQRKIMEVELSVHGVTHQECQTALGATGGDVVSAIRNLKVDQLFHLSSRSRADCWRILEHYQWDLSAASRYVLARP
UniProt Q8NEV4, sequence (whole entry, looked up): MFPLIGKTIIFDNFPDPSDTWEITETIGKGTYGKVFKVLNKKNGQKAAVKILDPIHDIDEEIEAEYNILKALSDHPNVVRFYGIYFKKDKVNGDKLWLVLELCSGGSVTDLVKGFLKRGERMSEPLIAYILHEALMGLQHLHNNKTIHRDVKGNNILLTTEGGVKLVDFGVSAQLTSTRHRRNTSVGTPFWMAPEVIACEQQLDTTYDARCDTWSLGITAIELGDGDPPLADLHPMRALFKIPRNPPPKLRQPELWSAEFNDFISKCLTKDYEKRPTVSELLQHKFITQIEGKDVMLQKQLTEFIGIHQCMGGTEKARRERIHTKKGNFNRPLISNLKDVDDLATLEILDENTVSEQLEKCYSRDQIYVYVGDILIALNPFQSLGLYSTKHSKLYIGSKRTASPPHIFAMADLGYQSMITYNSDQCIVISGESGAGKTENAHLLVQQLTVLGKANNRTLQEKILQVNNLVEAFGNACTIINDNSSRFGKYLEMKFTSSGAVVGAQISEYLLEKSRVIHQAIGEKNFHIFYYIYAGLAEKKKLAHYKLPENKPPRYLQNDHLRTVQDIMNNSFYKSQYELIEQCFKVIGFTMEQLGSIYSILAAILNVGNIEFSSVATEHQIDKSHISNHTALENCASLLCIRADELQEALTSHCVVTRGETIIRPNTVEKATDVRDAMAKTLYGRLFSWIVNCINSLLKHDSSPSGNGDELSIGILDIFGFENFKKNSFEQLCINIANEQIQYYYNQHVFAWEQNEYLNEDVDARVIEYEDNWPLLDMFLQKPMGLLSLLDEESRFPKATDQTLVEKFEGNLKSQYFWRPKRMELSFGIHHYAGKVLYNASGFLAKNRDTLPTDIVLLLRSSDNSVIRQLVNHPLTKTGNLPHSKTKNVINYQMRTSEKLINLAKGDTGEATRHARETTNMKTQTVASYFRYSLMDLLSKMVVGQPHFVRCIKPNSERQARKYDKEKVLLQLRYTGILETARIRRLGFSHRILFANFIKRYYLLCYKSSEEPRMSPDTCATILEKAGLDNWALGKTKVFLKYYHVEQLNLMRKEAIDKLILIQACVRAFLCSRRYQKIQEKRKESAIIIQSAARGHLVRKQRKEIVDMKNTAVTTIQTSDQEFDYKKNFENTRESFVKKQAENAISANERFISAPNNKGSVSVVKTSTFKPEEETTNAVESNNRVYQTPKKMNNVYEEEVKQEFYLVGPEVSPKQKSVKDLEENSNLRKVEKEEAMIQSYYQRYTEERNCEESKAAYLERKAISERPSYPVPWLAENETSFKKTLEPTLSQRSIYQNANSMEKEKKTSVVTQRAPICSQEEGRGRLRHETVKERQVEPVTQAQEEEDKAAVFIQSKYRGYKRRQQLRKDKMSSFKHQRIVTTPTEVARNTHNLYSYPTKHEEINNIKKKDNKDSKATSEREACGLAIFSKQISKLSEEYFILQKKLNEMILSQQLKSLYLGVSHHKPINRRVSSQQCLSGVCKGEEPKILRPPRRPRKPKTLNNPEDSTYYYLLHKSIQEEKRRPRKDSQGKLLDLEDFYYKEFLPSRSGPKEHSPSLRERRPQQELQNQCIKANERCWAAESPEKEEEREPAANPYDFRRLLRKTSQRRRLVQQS
UniProt Q9P289, sequence (whole entry, looked up): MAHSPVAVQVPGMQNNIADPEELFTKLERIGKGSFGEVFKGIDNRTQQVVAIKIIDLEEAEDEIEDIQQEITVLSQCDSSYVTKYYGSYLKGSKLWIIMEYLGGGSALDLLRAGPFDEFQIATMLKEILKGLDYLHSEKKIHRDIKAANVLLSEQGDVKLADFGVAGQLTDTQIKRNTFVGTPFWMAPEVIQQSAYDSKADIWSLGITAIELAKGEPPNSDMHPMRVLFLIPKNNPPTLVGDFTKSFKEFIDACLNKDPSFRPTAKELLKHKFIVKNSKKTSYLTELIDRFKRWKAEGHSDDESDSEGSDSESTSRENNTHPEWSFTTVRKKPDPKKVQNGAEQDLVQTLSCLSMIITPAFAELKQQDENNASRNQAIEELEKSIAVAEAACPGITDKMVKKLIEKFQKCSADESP
UniProt Q16816, sequence (whole entry, looked up): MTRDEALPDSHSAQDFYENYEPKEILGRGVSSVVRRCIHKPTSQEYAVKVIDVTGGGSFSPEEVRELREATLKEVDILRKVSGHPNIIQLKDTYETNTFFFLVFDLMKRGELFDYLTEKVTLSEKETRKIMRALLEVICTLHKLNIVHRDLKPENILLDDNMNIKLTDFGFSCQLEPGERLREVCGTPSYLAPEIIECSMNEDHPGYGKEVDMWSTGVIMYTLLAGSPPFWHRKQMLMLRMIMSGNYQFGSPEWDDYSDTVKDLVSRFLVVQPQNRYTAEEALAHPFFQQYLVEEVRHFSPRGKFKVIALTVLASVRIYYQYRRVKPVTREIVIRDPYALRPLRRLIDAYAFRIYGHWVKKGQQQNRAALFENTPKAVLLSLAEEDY
UniProt P07949, sequence (whole entry, looked up): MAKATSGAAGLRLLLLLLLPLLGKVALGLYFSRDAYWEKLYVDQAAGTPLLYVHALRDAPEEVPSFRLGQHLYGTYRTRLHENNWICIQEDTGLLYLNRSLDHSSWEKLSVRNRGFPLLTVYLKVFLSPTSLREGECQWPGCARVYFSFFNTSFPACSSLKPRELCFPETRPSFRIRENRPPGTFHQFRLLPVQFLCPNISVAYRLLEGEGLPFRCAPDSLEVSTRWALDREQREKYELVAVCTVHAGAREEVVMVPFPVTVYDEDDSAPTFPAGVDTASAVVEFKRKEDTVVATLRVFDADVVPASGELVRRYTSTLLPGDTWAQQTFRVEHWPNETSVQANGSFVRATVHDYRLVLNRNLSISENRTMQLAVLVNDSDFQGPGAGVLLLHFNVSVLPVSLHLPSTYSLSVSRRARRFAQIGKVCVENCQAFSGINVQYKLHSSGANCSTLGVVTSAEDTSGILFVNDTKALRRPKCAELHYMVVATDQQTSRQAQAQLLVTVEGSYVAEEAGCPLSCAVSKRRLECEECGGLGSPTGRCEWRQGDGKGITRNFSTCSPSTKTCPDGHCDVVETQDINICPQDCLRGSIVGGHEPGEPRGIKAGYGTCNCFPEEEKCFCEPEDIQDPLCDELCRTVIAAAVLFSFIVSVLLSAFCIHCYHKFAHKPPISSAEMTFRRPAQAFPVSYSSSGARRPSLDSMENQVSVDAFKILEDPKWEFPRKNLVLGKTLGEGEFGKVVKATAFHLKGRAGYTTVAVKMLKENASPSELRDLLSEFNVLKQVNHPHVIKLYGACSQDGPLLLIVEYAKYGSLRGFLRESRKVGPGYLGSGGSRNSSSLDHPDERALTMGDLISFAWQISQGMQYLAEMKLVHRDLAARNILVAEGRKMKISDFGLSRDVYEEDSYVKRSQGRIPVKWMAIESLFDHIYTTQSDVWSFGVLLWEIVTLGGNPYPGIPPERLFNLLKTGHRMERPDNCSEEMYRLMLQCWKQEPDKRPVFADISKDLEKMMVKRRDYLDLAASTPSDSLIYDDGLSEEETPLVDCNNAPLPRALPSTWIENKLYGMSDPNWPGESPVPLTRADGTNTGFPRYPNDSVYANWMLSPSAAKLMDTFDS
UniProt P31751, sequence (whole entry, looked up): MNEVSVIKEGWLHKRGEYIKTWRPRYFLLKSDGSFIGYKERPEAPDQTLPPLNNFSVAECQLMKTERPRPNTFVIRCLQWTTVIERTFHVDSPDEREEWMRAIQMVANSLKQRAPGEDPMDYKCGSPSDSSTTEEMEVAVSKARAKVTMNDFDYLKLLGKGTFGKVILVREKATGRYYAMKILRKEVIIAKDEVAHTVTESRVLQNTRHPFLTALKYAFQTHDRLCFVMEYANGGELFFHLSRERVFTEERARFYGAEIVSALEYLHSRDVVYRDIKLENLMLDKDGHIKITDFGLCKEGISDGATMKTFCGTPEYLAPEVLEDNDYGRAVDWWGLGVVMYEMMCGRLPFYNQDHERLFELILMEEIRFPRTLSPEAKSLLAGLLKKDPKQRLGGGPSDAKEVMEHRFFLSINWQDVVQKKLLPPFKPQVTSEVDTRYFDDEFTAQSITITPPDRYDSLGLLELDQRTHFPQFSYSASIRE

Sample 1
Cell line: mouse MPNST tumor cells
Technique: high-content nuclear imaging
Measured: cell number
Tested at: 10 µM
Time: 12 h
Notes: mean of 2 replicates
Relative to: plate mean
Reading: higher = more cells
SMILES	nuclei count
CCCCCCCCCCCCc1ccc(S(=O)(=O)Nc2nncs2)cc1	0.401 z-score
COc1ccc2[nH]c(=O)c(C(c3nnnn3CCc3ccccc3)N3CCN(C4CCCCC4)CC3)cc2c1 (stereo not drawn)	0.228 z-score
COc1ccc(C(Cl)=C(c2ccc(OC)cc2)c2ccc(OC)cc2)cc1	3.02 z-score
CS(=O)(=O)OCCCCOS(C)(=O)=O	-0.633 z-score and 0.632 z-score
CC#C[C@]1(O)CC[C@H]2[C@@H]3CCC4=CC(=O)CCC4=C3[C@@H](c3ccc(N(C)C)cc3)C[C@@]21C	4.34 z-score and 0.925 z-score and 6.61 z-score
Cc1cn([C@H]2C[C@H](N=[N+]=[N-])[C@@H](CO)O2)c(=O)[nH]c1=O	-0.754 z-score

Sample 2
Compound: Cc1cc(C)c(-n2ccn3nc(-c4cccnc4)cc23)cc1NC(=O)c1cc(C#N)cc(S(F)(F)(F)(F)F)c1
Technique: competition with immobilised ligand
Tested at: 0.1 µM
target	read-out	remaining binding [%]
Myosin-IIIa (MYO3A, Homo sapiens, UniProt Q8NEV4)	binding	94.9
RAC-beta serine/threonine-protein kinase (AKT2, Homo sapiens, UniProt P31751)	cell-free assay	88.4
Serine/threonine-protein kinase 26 (STK26, Homo sapiens, UniProt Q9P289)	cell-free assay	81.8
Non-receptor tyrosine-protein kinase TNK1 (TNK1, Homo sapiens, UniProt Q13470)	cell-free assay	87.6
Phosphorylase b kinase gamma catalytic chain, skeletal muscle/heart isoform (PHKG1, Homo sapiens, UniProt Q16816)	cell-free assay	80.1
Proto-oncogene tyrosine-protein kinase receptor Ret (RET, Homo sapiens, UniProt P07949)	cell-free assay	82

Sample 3
Cell line: 451Lu
Compound	IC50 [µM]
CN1CCN(CCCN2c3ccccc3Sc3ccc(C(F)(F)F)cc32)CC1	16.6
CC(C)c1ccc2c(c1)CC[C@H]1[C@](C)(CN)CCC[C@]21C	6.5
OCCN1CCN(CCC=C2c3ccccc3Sc3ccc(C(F)(F)F)cc32)CC1	32.6
COCC(=O)O[C@]1(CCN(C)CCCc2nc3ccccc3[nH]2)CCc2cc(F)ccc2[C@@H]1C(C)C	19.2

Sample 4
Target: Serine/threonine-protein kinase D1 (PRKD1, Homo sapiens, UniProt Q15139)
Read-out: enzyme activity
Mode: inhibitor
Tested at: 0.5 µM
Relative to: control
Construct (Q15139 1-912): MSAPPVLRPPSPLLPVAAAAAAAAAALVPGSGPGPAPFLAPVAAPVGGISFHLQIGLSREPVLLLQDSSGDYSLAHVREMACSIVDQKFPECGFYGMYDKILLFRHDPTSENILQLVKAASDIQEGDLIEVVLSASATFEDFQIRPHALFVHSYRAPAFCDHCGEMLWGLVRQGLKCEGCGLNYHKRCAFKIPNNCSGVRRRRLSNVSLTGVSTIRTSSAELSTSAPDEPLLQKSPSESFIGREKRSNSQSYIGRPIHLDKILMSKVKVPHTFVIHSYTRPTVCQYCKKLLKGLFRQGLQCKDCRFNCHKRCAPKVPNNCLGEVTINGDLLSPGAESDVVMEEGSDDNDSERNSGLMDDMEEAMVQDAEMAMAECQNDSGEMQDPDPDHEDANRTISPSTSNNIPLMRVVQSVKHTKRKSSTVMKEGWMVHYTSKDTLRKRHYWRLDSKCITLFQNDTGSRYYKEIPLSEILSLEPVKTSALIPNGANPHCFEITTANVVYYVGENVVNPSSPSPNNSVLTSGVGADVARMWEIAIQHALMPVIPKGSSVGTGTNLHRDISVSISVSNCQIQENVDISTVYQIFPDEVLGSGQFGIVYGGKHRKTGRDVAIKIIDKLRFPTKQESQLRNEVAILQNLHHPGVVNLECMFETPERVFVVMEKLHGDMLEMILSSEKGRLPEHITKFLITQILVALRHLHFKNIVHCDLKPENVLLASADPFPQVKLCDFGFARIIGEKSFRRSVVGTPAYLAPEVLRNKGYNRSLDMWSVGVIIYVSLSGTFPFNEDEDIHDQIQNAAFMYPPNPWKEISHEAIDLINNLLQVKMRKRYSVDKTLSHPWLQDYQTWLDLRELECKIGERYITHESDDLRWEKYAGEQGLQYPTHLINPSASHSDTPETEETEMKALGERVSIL
SMILES	remaining activity
Cn1sc(=O)n(Cc2ccccc2)c1=O	101%
Cc1cccc(-c2[nH]c(C(C)(C)C)nc2-c2ccc3c(c2)OCO3)n1	92.3%
O=C1NC(=O)C(c2cn(CCCO)c3ncccc23)=C1c1cnccn1	107%
Cc1ccc(NC(=O)c2ccc(CN3CCN(C)CC3)cc2)cc1Nc1nc(-c2cccnc2)cs1	98.2%
Nc1[nH]nc2nc3ccccc3nc12	94.9%
Cc1nc(-c2ccccc2)c(-c2ccncc2)o1	95.6%
O=C(Nc1cccc(Nc2cc(Nc3cccc(C(F)(F)F)c3)ncn2)c1)C1CC1	100%
O=c1c2ccccc2[nH]c(=S)n1CCN1CCC(=C(c2ccc(F)cc2)c2ccc(F)cc2)CC1	101%
O=C1NC(=O)C(c2cn(CCCn3ccnc3)c3ccccc23)=C1Nc1ccccc1	94.4%
COc1ccc(OC)c2c(=S)c3ccccc3[nH]c12	99.8%
C#Cc1cccc(Nc2ncnc3cc(OCCOC)c(OCCOC)cc23)c1	94.8%
O=S(=O)(c1cccc2cnccc12)N1CCCNCC1	65.1%
CN(C)c1ccc(C=C2C(=O)Nc3ccccc32)cc1	100%
CNC(=O)c1cc(Oc2ccc(NC(=O)Nc3ccc(Cl)c(C(F)(F)F)c3)cc2)ccn1	99.7%
